Experimental data collected from several papers.
Lines come from different studies, so protocols differ. Numbers after ± are the reported error.
Methyl-accepting chemotaxis protein CtaA sensing domain: Methyl-accepting chemotaxis protein CtaA, sensing domain (Pseudomonas fluorescens, UniProt Q3K7T6)
UniProt P53215, sequence (whole entry, unmodified, looked up): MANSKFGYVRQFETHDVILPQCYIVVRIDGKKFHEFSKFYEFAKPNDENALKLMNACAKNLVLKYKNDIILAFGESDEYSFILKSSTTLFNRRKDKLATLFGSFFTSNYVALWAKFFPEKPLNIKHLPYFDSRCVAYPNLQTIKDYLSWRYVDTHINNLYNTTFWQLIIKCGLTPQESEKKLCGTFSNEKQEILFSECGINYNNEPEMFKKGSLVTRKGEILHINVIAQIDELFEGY
UniProt Q96EB6, sequence (whole entry, looked up): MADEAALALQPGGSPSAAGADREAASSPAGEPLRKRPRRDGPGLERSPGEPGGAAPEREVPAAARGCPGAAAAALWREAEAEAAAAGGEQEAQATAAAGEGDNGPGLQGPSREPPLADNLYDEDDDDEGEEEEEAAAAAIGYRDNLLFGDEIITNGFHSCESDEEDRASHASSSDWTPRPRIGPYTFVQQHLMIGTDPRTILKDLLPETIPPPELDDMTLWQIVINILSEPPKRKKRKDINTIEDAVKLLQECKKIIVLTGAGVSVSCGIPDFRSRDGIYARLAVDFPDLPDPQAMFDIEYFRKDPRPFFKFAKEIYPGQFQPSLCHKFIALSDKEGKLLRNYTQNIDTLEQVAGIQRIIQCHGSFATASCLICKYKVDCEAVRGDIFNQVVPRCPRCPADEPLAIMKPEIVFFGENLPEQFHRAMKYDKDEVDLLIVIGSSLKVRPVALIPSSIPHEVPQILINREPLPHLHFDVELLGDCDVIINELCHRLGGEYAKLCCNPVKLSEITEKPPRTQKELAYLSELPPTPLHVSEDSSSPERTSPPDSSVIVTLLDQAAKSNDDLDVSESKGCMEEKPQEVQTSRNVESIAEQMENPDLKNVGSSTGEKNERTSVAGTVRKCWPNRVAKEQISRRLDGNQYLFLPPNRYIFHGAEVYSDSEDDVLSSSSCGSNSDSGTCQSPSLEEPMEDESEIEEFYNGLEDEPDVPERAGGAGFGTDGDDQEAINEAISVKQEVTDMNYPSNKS
UniProt Q14849, sequence (whole entry, looked up): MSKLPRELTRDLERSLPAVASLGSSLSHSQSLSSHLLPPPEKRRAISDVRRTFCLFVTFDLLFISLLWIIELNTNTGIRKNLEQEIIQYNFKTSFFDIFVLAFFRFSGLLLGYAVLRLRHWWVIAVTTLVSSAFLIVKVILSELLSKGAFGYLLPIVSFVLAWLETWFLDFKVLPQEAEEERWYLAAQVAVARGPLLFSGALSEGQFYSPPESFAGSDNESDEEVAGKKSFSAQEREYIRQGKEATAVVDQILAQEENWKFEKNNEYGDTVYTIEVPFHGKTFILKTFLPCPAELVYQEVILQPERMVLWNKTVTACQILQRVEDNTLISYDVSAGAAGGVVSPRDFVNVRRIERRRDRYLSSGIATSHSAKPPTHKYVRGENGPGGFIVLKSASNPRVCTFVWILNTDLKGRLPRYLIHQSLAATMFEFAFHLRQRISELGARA
UniProt P49902, sequence (whole entry, unmodified, looked up): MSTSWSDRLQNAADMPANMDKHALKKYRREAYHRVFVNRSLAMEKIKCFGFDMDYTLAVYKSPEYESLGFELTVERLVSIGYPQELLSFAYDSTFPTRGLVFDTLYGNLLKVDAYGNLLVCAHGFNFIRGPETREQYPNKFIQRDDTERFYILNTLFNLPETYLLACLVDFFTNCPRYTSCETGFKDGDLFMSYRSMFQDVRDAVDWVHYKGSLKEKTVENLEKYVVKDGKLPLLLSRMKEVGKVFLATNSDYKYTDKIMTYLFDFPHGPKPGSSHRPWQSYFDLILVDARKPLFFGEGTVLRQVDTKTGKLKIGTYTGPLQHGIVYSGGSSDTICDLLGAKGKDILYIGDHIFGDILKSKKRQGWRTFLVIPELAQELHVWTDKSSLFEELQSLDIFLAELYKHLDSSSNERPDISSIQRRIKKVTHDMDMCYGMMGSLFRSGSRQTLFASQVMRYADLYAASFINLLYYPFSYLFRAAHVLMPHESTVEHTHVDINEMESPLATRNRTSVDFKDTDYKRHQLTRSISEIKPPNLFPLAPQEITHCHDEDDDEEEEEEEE

The Kd of `CC(C)[C@H](N)C(=O)O` is reported as 4 ± 0.4 µM (Methyl-accepting chemotaxis protein CtaA sensing domain; binding, thermal shift, zero heat capacity).
For `Nc1nc2c(ncn2[C@@H]2O[C@H](COP(=O)(O)OP(=O)(O)OP(=O)(O)O)[C@@H](O)[C@H]2O)c(=O)[nH]1`, the Kd was 230 ± 60 µM (tRNA(His) guanylyltransferase (THG1, Saccharomyces cerevisiae, UniProt P53215, R27A); nucleotidyl transfer, substrate, single-turnover kinetics; pH 7.5, room temperature, added: ppp-tRNA(His)).
With `NC(=O)c1c(NC(=O)c2ccc3[nH]cnc3c2)sc2c1CCCC2` the Kd was 70.9 µM (Cytosolic purine 5'-nucleotidase (Homo sapiens, UniProt P49902, D52N/R367Q); binding, surface plasmon resonance; substrate free).
`O=C(O)c1cc(NC(=O)C2CC2c2ccccc2)ccc1O` (stereo not drawn) has a Kd of 2.5 µM (GTPase KRas (KRAS, Homo sapiens, UniProt P01116, G12D); microscale thermophoresis; second low-affinity site, added: GNP-bound).
`FITC-CXCL8` has a Kd of 0.17 µM (dermatan sulfate; binding, fluorescence titration; 20 °C).
With `CC(C)C[C@H](N)C(=O)O` the Kd was 7.4 ± 1.9 µM (Methyl-accepting chemotaxis protein CtaA sensing domain; binding, thermal shift, curve fitting).
`salvianolic acid B` has a Kd of 21.7 ± 1.5 µM (Prothrombin (F2, Homo sapiens, UniProt P00734); binding, intrinsic fluorescence; pH 7.4, 20 °C).
`Cn1cc(NC(=O)c2cc(NC(=O)c3cc(NC=O)cn3C)cn2C)cc1C(=O)NCCC(=N)N` has a Kd of 75.4 ± 7.5 µM (HIV-1 SL2 RNA stem-loop; binding, ESI-FTMS titration; pH 7.5).
`Nc1ncnc2c1ncn2[C@@H]1O[C@H](COP(=O)(O)OP(=O)(O)OP(=O)(O)O)[C@@H](O)[C@H]1O` has a Kd of 170 ± 40 µM (tRNA(His) guanylyltransferase (THG1, Saccharomyces cerevisiae, UniProt P53215, R133A); tRNA(His) adenylylation, substrate, single-turnover kinetics; pH 6.0, room temperature, added: p-tRNA(His)).
With `C[C@H](N)C(=O)O` the Kd was 7.1 ± 0.4 µM (Methyl-accepting chemotaxis protein CtaA (Pseudomonas fluorescens, UniProt Q3K7T6); binding, ITC).
With `CC1=C[C@H](O)CC(C)(C)[C@H]1/C=C/C(C)=C/C=C/C(C)=C/C=C/C=C(C)/C=C/C=C(C)/C=C/C1=C(C)C[C@@H](O)CC1(C)C` the Kd was 0.59 ± 0.03 µM (StAR-related lipid transfer protein 3, START domain (STARD3, Homo sapiens, UniProt Q14849); binding, SPR; 25 °C).
`C[C@H]1O[C@@H](O[C@H]2CC[C@@]3(C)[C@@H](CC[C@]4(C)[C@@H]3C=CC3=C5CC(C)(C)CC[C@]5(CO)[C@@H](O)C[C@]34C)[C@]2(C)CO)[C@H](O)[C@@H](O[C@@H]2O[C@H](CO)[C@@H](O)[C@H](O)[C@H]2O)[C@H]1O` gave a Kd of 97.6 µM (SIRT1 (Homo sapiens, UniProt Q96EB6); binding, MST).

Excerpt of the above:
`O=C(O)c1cc(NC(=O)C2CC2c2ccccc2)ccc1O` (stereo not drawn) has a Kd of 2.5 µM (GTPase KRas (KRAS, Homo sapiens, UniProt P01116, G12D); microscale thermophoresis; second low-affinity site, added: GNP-bound).
